Measured values from different studies.
Compare with care: the assays were run in different laboratories. Several values in a cell are separate wells, animals, samples, runs or records. pIC50: −log10 of the molar value.
Cell line: HaCaT

SMILES | test | conditions | how to read | measurement | value
Cc1ccc(NS(=O)(=O)c2c(C(=O)N3CCCCCC3)c(C)n(C)c2C)c(Cl)c1 | – | 33.33 µM, 60 h | – | viability | 100% and 95.7%
CC(=O)Oc1ccc(/C=C/C(=O)Oc2ccc(C(F)(F)F)c(C(F)(F)F)c2)cc1OC(C)=O | cell growth or viability, MTT | 24 h | – | CC50 | 84.5 µM
CC(C)C[C@H](NC(=O)[C@H](CC(C)C)NC(=O)[C@H](CCCCN)NC(=O)CNC(=O)[C@H](CC(C)C)NC(=O)CNC(=O)[C@H](CO)NC(=O)[C@H](CC(C)C)NC(=O)[C@H](CC(C)C)NC(=O)[C@H](CO)NC(=O)[C@H](CCCCN)NC(=O)[C@H](CC(C)C)NC(=O)[C@H](CCCCN)NC(=O)[C@H](CCCCN)NC(=O)[C@H](CC(C)C)NC(=O)[C@H](CC(C)C)NC(=O)[C@H](CC(C)C)NC(=O)CNC(=O)[C@H](CO)NC(=O)[C@H](Cc1c[nH]c2ccccc12)NC(=O)[C@@H](N)CCCCN)C(=O)O | MTS | 24 h | – | TC50 | 20 µM
CC[C@H](C)[C@H](NC(=O)[C@H](C)NC(=O)[C@H](CCCCN)NC(=O)[C@H](CC(C)C)NC(=O)[C@@H](N)Cc1ccccc1)C(=O)N[C@@H](CCCCN)C(=O)N[C@@H](CCCCN)C(=O)N[C@@H](Cc1ccccc1)C(=O)NCC(=O)N[C@@H](CCCCN)C(=O)N[C@@H](CCC(=O)O)C(=O)N[C@@H](Cc1ccccc1)C(=O)N[C@@H](CCCCN)C(=O)N[C@@H](CCCCN)C(=O)N[C@H](C(=O)NCC(=O)N[C@@H](C)C(=O)N[C@@H](CCCCN)C(=O)N[C@@H](CC(C)C)C(=O)N[C@@H](CCCCN)C(=O)O)[C@@H](C)CC | MTT | 16 mg/L | reference: untreated | cell growth | 90.1% and 91.5% and 97.5% and 93.8% and 84.5%
CC[C@H](C)[C@H](N)C(=O)NCC(=O)NCC(=O)N[C@@H](CCCCN)C(=O)N[C@@H](CC(N)=O)C(=O)NCC(=O)NCC(=O)N[C@@H](Cc1c[nH]c2ccccc12)C(=O)N[C@@H](Cc1c[nH]c2ccccc12)C(=O)NCC(=O)N[C@@H](CCCCN)C(=O)N[C@H](C(=O)N[C@@H](CCCNC(=N)N)C(=O)N[C@@H](Cc1c[nH]c2ccccc12)C(=O)NCC(=O)N[C@@H](CC(C)C)C(=O)N[C@@H](CC(C)C)C(=O)N[C@@H](CO)C(=O)N[C@@H](CC(C)C)C(=O)N[C@H](C(=O)N[C@@H](CCCCN)C(=O)NCC(=O)N[C@H](C(=O)N[C@@H](C)C(=O)NCC(=O)N[C@@H](CCC(N)=O)C(=O)N[C@@H](CCCNC(=N)N)C(=O)N[C@@H](CC(C)C)C(=O)N[C@@H](CC(C)C)C(=O)O)[C@@H](C)CC)[C@@H](C)CC)C(C)C | cytotoxicity, MTT | 24 h, 37 °C | – | pIC50 | 5.15
COc1cc(/C=C/C(=O)Oc2cc(C(F)(F)F)cc(C(F)(F)F)c2)ccc1OC(C)=O | cell growth or viability, MTT | 24 h | – | CC50 | 76.2 µM
CC[C@H](C)[C@H](NC(=O)CNC(=O)[C@H](CC(C)C)NC(=O)[C@@H](NC(=O)CNC(=O)[C@H](CC(C)C)NC(=O)[C@H](CCC(N)=O)NC(=O)[C@@H](NC(=O)[C@H](CO)NC(=O)[C@H](C)NC(=O)[C@H](CCCCN)NC(=O)[C@H](CCCNC(=N)N)NC(=O)[C@H](CC(C)C)NC(=O)CNC(=O)[C@H](CCC(N)=O)NC(=O)[C@H](CC(C)C)NC(=O)[C@H](CC(C)C)NC(=O)[C@H](CCC(=O)O)NC(=O)CNC(=O)[C@H](CCCNC(=N)N)NC(=O)[C@@H](NC(=O)[C@H](CCCCN)NC(=O)[C@H](Cc1ccccc1)NC(=O)[C@H](CCCCN)NC(=O)[C@H](CCCCN)NC(=O)[C@H](CO)NC(=O)[C@H](CCCCN)NC(=O)[C@H](CC(C)C)NC(=O)[C@H](CC(C)C)NC(=O)[C@H](CCCCN)NC(=O)[C@H](CCCCN)NC(=O)[C@@H](NC(=O)[C@@H](NC(=O)[C@H](CCCCN)NC(=O)CNC(=O)[C@H](CC(C)C)NC(=O)[C@H](CCCCN)NC(=O)[C@H](C)N)[C@@H](C)O)[C@@H](C)CC)[C@@H](C)CC)C(C)C)[C@@H](C)O)C(=O)N[C@@H](CC(C)C)C(=O)O | cytotoxicity, MTT | 24 h, 37 °C | – | pIC50 | 4.53
CC[C@H](C)[C@H](NC(=O)[C@H](C)NC(=O)[C@H](CCCCN)NC(=O)[C@H](CCCCN)NC(=O)[C@@H](N)CCCNC(=N)N)C(=O)N[C@@H](CCCCN)C(=O)N[C@@H](CC(C)C)C(=O)N[C@H](C(=O)N[C@@H](CCCCN)C(=O)N[C@@H](CCCCN)C(=O)N[C@@H](CC(C)C)C(=O)N[C@H](C(=O)N[C@@H](CCCCN)C(=O)N[C@@H](CCCCN)C(=O)N[C@@H](CC(C)C)C(=O)N[C@@H](CCCCN)C(=O)N[C@@H](CCCCN)C(=O)N[C@@H](C)C(=O)N[C@@H](CC(C)C)C(=O)N[C@@H](CCCCN)C(=O)O)C(C)C)C(C)C | MTT | 8 mg/L | reference: untreated | cell growth | 89.9% and 98.9% and 90.9% and 92.1% and 85.1%
COC(=O)/C=C/c1ccc(O)c(OC)c1 | cell growth or viability, MTT | 24 h | – | CC50 | > 250 µM
CC(C)C[C@H](NC(=O)[C@H](CC(N)=O)NC(=O)[C@H](CCCNC(=N)N)NC(=O)[C@@H](CC(C)C)NC(=O)[C@H](Cc1ccc(-c2ccccc2)cc1)NC(=O)[C@H](CC(=O)O)NC(=O)[C@H](CCCCN)NC(=O)[C@@H](CC(C)C)NC(=O)[C@H](CCCNC(=N)N)NC(=O)[C@H](CCC(N)=O)NC(=O)[C@@H](NC(=O)[C@@H](CC(C)C)NC(=O)[C@H](CCCNC(=N)N)NC(=O)[C@H](CCCCN)NC(=O)[C@H](Cc1ccc(-c2ccccc2)cc1)NC(=O)CN)C(C)C)C(=O)N[C@H](C(N)=O)C(C)C | cell viability, MTS | 1 h, 37 °C, 10% FBS | – | LC50 | 40 µM

Repeated from above:
SMILES | test | conditions | how to read | measurement | value
CC(=O)Oc1ccc(/C=C/C(=O)Oc2ccc(C(F)(F)F)c(C(F)(F)F)c2)cc1OC(C)=O | cell growth or viability, MTT | 24 h | – | CC50 | 84.5 µM
